{"data": "Assay results from different studies", "organism": "Trypanosoma congolense", "note": "Compare with care: the assays were run in different laboratories. Numbers after ± are the reported error."}
{"Structure (SMILES)": "CCC(NC(=O)CN1C(=O)N/C(=C\\c2ccc(C)cc2)C1=O)C(=O)OC (centres unmarked)", "system": "MDBK, IL3000", "scale": "baseline: MDBK CC50 over parasite IC50", "quantity": "selectivity index", "result": 1}
{"Structure (SMILES)": "COc1ccc(O)c(-c2nc(-c3ccccc3)c(-c3ccccc3)n2-c2ccccc2)c1", "assay": "parasite viability, luminescence", "system": "IL3000 bloodstream form", "setting": "72 h, 33 °C", "quantity": "EC50", "result": "11.3 µg/mL"}
{"Structure (SMILES)": "O=[N+]([O-])c1ccc(/C=N/N=C/c2ccc(F)cc2)s1", "assay": "parasite growth, CellTiter-Glo", "system": "IL3000 bloodstream form", "setting": "72 h, 33 °C", "quantity": "IC50", "result": "60 ± 30 nM"}
{"Structure (SMILES)": "CCOC(=O)C(C)NC(=O)CN1C(=O)N/C(=C\\c2ccc(C)cc2)C1=O (centres unmarked)", "system": "MDBK, IL3000", "scale": "baseline: MDBK CC50 over parasite IC50", "quantity": "selectivity index", "result": 4}
{"Structure (SMILES)": "Nc1ncnc2c1c(-c1ccccn1)cn2[C@@H]1O[C@H](CO)[C@@H](O)[C@H]1O", "assay": "parasite growth, resazurin", "setting": "72 h", "quantity": "EC50", "result": "170 nM"}
{"Structure (SMILES)": "CCOC(=O)CNC(=O)CN1C(=O)S/C(=C\\c2ccc(OC)c(O)c2)C1=O", "assay": "parasite growth", "setting": "72 h", "quantity": "IC50", "result": "37300 nM"}
{"Structure (SMILES)": "Nc1ncnc2c1ccn2[C@H]1C[C@H](O)[C@@H](CO)O1", "assay": "parasite growth, resazurin", "setting": "72 h", "quantity": "EC50", "result": "43000 nM"}
{"Structure (SMILES)": "O=[N+]([O-])c1ccc(/C=N/N=C/c2ccc([N+](=O)[O-])s2)cc1", "assay": "parasite growth, CellTiter-Glo", "system": "IL3000 bloodstream form", "setting": "72 h, 33 °C", "quantity": "IC50", "result": "60 ± 20 nM"}
{"Structure (SMILES)": "CCOC(=O)C(C)NC(=O)CN1C(=O)S/C(=C\\c2ccc(F)cc2)C1=O (centres unmarked)", "assay": "parasite growth", "setting": "72 h", "quantity": "IC50", "result": "14100 nM"}
{"Structure (SMILES)": "c1ccc(-n2c(-c3cccs3)nc3c4ccccc4c4ccccc4c32)cc1", "assay": "parasite viability, luminescence", "system": "IL3000 bloodstream form", "setting": "72 h, 33 °C", "quantity": "EC50", "result": "> 25 µg/mL"}
{"Structure (SMILES)": "Cc1ccc(/C=N/N=C/c2ccc([N+](=O)[O-])o2)cc1", "assay": "parasite growth, CellTiter-Glo", "system": "IL3000 bloodstream form", "setting": "72 h, 33 °C", "quantity": "IC50", "result": "180 ± 50 nM"}
{"Structure (SMILES)": "Nc1ncnc2c1c(Br)cn2[C@H]1C[C@H](O)[C@@H](CO)O1", "assay": "parasite growth, resazurin", "setting": "72 h", "quantity": "EC50", "result": "510 nM"}
{"Structure (SMILES)": "O=[N+]([O-])c1ccc(/C=N/N=C/c2ccc(Br)cc2)s1", "assay": "parasite growth, CellTiter-Glo", "system": "IL3000 bloodstream form", "setting": "72 h, 33 °C", "quantity": "IC50", "result": "120 ± 30 nM"}
{"Structure (SMILES)": "Nc1ncnc2c1ccn2[C@@H]1O[C@H](CO)C[C@H]1O", "assay": "parasite growth, resazurin", "setting": "72 h", "quantity": "EC50", "result": "21 nM"}
{"Structure (SMILES)": "CCOC(=O)CNC(=O)CN1C(=O)S/C(=C\\c2ccc(C)cc2)C1=O", "system": "MDBK, IL3000", "scale": "baseline: MDBK CC50 over parasite IC50", "quantity": "selectivity index", "result": 3}
{"Structure (SMILES)": "O=[N+]([O-])c1ccc(/C=N/N=C/c2ccc(Cl)cc2)s1", "assay": "parasite growth, CellTiter-Glo", "system": "IL3000 bloodstream form", "setting": "72 h, 33 °C", "quantity": "IC50", "result": "140 ± 60 nM"}
{"Structure (SMILES)": "CC(C)(C)c1cc(-c2nc3c4ccccc4c4ccccc4c3o2)c(O)c(C(C)(C)C)c1", "assay": "parasite viability, luminescence", "system": "IL3000 bloodstream form", "setting": "72 h, 33 °C", "quantity": "EC50", "result": "6.82 µg/mL"}
{"Structure (SMILES)": "CCOC(=O)C(CC)NC(=O)CN1C(=O)S/C(=C\\c2ccc(OC)cc2)C1=O (centres unmarked)", "assay": "parasite growth", "setting": "72 h", "quantity": "IC50", "result": "> 58000 nM"}
{"Structure (SMILES)": "Oc1ccccc1-c1nc2c3ccccc3c3ccccc3c2o1", "assay": "parasite viability, luminescence", "system": "IL3000 bloodstream form", "setting": "72 h, 33 °C", "quantity": "EC50", "result": "> 25 µg/mL"}
{"Structure (SMILES)": "Cc1ccc(/C=N/N=C/c2ccc([N+](=O)[O-])s2)cc1", "assay": "parasite growth, CellTiter-Glo", "system": "IL3000 bloodstream form", "setting": "72 h, 33 °C", "quantity": "IC50", "result": "350 ± 100 nM"}
{"Structure (SMILES)": "C#Cc1cn([C@@H]2O[C@H](CO)C[C@H]2O)c2ncnc(N)c12", "assay": "parasite growth, resazurin", "setting": "72 h", "quantity": "EC50", "result": "17 nM"}
{"Structure (SMILES)": "O=[N+]([O-])c1ccc(/C=N/N=C/c2ccccc2)o1", "assay": "parasite growth, CellTiter-Glo", "system": "IL3000 bloodstream form", "setting": "72 h, 33 °C", "quantity": "IC50", "result": "190 ± 80 nM"}
{"Structure (SMILES)": "Nc1ncnc2c1c(Br)cn2[C@@H]1O[C@H](CO)C[C@H]1O", "assay": "parasite growth, resazurin", "setting": "72 h", "quantity": "EC50", "result": "0.7 nM"}
{"note": "Excerpt of the above:"}
{"Structure (SMILES)": "C#Cc1cn([C@@H]2O[C@H](CO)C[C@H]2O)c2ncnc(N)c12", "assay": "parasite growth, resazurin", "setting": "72 h", "quantity": "EC50", "result": "17 nM"}
